Measurements of several laboratories.
Parts stem from different laboratories: compare values within a part only. Several values in a cell are separate wells, animals, samples, runs or records.

Sample 1 — method: CellTiter-Glo; concentration: 1 µM; time: 4 days; baseline: DMSO
SMILES: CCCCN(CCCC)C(=O)CN1C[C@@H](c2cc(OC)c3c(c2)OCO3)[C@H](C(=O)O)[C@H]1CC(C)(C)CCC
The viability was 136% (sample E normal colon organoid).
It gave 107% for viability (sample G normal colon organoid).
The viability was 110% (sample F normal colon organoid).

Sample 2 — cell line: NCI-H446; time: 5 days; baseline: DMSO
Compound: CCC[C@H]1NC(=O)[C@H](Cc2cc(Cl)ccc2-c2cnn(C)c2)N(C)C(=O)[C@H](CC(C)C)NC(=O)[C@@H](N(C)C(=O)[C@H](CCCCN2CCOCC2)NC(=O)[C@@H](c2cccnc2)C2CCCCC2)CCCCNC1=O
The cell growth was 79.4% and 74.1% (cell counting; 371 nM).
The cell growth was 89.2% and 96% (cell counting; 41.1 nM).
For cell counting; 3.33 µM: cell growth read 72.1% and 69.1%.
For cell counting; 1.52 nM: cell growth read 73.4% and 82%.
For Vi-Cell counting; 124 nM, added: Myt1 inhibitor 1000 nM: cell growth read 47.4% and 59.2%.
The cell growth was 63.5% and 60.7% (Vi-Cell counting; 4.57 nM, added: Myt1 inhibitor 1000 nM).
For cell counting; 10 µM: cell growth read 22.2% and 21.6%.

Sample 3 — effect on: enzyme activity; mode: inhibitor; concentration: 0.5 µM; baseline: control
Target: Lymphokine-activated killer T-cell-originated protein kinase (PBK, Homo sapiens, UniProt Q96KB5)
Target sequence (Q96KB5 1-322): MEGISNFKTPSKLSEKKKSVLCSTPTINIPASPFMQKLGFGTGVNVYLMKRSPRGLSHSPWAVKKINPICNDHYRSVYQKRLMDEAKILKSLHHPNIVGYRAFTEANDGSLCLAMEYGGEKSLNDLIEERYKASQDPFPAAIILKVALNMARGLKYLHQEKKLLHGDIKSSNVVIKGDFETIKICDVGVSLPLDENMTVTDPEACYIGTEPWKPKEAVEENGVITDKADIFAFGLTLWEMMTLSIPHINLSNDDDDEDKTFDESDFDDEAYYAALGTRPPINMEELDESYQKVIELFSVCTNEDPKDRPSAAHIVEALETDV
`CCc1[nH]c(-c2ccc(OC)cc2)nc1-c1ccncc1` gave a remaining activity of 104%.
The remaining activity of `CSc1nc(-c2ccnc(N[C@@H](C)c3ccccc3)c2)c(-c2ccc(F)cc2)[nH]1` (racemic) is reported as 109%.
With `Fc1ccc(-c2nc3n(c2-c2ccncc2)CCS3)cc1` the remaining activity was 100%.
The remaining activity of `COc1cc(Nc2c(C#N)cnc3cc(OCCCN4CCN(C)CC4)c(OC)cc23)c(Cl)cc1Cl` is reported as 104%.
`Cc1ccc(NC2=CC(=O)c3sc(C)nc3C2=O)cc1` has a remaining activity of 85.8%.
`Nc1nc(Nc2ccc(S(N)(=O)=O)cc2)nn1C(=O)c1c(F)cccc1F` gave a remaining activity of 92.1%.
The remaining activity of `COc1ccc(S(=O)(=O)N(CCO)c2ccccc2CN(C)CC=Cc2ccc(Cl)cc2)cc1` is reported as 95.3%.
The remaining activity of `CC[n+]1c(/C=C/N(C)c2ccccc2)n(-c2ccccc2)c2ccc(-c3nc4ccccc4s3)cc21` is reported as 107%.
For `Oc1ccc(Nc2nc(-c3ccc(Cl)cc3)cs2)cc1`, the remaining activity was 100%.
`CC#CC(=O)Nc1cc2c(Nc3ccc(F)c(Cl)c3)ncnc2cn1` gave a remaining activity of 99.9%.
With `NC(=O)c1ccc(N(C(N)=O)c2c(F)cccc2F)nc1-c1ccc(F)cc1F` the remaining activity was 110%.
With `CC(=O)c1ccc(N2CCOCC2)cc1O` the remaining activity was 113%.
For `Nc1nccc(-c2c(-c3ccc(F)cc3)ncn2C2CCNCC2)n1`, the remaining activity was 94.9%.
With `N#CC(=C(N)Sc1ccc(N)cc1)c1ccccc1C(F)(F)F` the remaining activity was 95.3%.
`O=C1Cc2c([nH]c3ccc([N+](=O)[O-])cc23)-c2ccccc2N1` has a remaining activity of 85.1%.
For `Cc1cc(Nc2nc(-c3ccccc3)nc3ccccc23)n[nH]1`, the remaining activity was 95.4%.
The remaining activity of `Nc1ncnc2c1cnn2-c1ccccc1` is reported as 92.4%.
`CCCC(=O)Oc1ccc2[nH]c(C(=O)c3cc4ccccc4[nH]3)cc2c1` gave a remaining activity of 104%.
For `O=C1NC(=O)C(c2c[nH]c3ccccc23)=C1c1c[nH]c2ccccc12`, the remaining activity was 100%.
The remaining activity of `Cc1cncc2cccc(S(=O)(=O)N3CCCN(C(=O)CN)C[C@@H]3C)c12` is reported as 98.6%.

Sample 4 — SMILES: C=CCc1ccc(O)c(-c2ccc(O)c(CC=C)c2)c1; effect on: chloride current
ANO1 del476-501/F628A: Anoctamin-1 (ANO1, Homo sapiens, UniProt Q5XXA6, del476-501/F628A)
Sequence of UniProt Q5XXA6 (whole entry, unmodified, looked up): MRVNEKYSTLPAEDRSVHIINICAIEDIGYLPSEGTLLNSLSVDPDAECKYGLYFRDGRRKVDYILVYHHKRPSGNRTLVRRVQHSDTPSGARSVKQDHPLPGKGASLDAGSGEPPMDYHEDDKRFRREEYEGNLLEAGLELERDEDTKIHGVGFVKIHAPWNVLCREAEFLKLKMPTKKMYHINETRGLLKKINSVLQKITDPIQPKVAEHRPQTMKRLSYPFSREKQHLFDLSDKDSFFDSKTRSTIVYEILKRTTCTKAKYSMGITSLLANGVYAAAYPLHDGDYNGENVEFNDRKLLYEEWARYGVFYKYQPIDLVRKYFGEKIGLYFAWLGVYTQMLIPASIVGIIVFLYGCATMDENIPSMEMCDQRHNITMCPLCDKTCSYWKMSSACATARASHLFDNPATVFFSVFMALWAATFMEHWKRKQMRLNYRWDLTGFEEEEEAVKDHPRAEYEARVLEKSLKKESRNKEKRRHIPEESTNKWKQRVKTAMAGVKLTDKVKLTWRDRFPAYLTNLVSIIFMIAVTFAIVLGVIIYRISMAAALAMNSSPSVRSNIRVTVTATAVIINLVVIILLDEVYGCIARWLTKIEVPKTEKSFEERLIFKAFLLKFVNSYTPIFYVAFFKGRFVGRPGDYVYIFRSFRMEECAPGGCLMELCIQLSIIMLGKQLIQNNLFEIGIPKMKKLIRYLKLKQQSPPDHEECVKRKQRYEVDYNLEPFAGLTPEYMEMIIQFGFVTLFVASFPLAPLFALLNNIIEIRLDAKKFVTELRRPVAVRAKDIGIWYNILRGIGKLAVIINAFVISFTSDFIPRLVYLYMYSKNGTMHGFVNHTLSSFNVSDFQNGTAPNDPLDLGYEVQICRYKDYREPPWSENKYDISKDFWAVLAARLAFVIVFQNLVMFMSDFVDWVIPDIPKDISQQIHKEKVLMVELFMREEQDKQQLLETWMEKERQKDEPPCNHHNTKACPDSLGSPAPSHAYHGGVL
ANO1 del476-501: Anoctamin-1 (ANO1, Homo sapiens, UniProt Q5XXA6, del476-501)
For ANO1 del476-501/F628A; whole-cell voltage clamp; 1 µM, I-V at 80 mV, added: 4 µM Ca2+: normalized current read 0.681.
The normalized current was 0.336 and 0.42 and 0.371 and 0.416 and 0.349 and 0.346 and 0.443 (Anoctamin-1 (ANO1, Homo sapiens, UniProt Q5XXA6, del476-501/R429A); inhibitor, whole-cell voltage clamp; concentration not given, R429A mutant).
It gave 0.553 for normalized current (Anoctamin-1 (ANO1, Homo sapiens, UniProt Q5XXA6, del476-501/K629A); inside-out patch clamp; 10 µM, membrane voltage 80 mV).
The normalized current was -0.767 (ANO1 del476-501/F628A; whole-cell voltage clamp; 3 µM, concentration-response at -100 mV, added: 4 µM Ca2+).
It gave 0.464 for normalized current (ANO1 del476-501/F628A; whole-cell voltage clamp; 10 µM, concentration-response at 60 mV, added: 4 µM Ca2+).
Anoctamin-1 (ANO1, Homo sapiens, UniProt Q5XXA6); inhibitor, inside-out patch clamp; 10 µM, wild type at -100 mV — normalized current: -0.709.
ANO1 del476-501/F628A; whole-cell voltage clamp; 1 µM, concentration-response at -60 mV, added: 4 µM Ca2+ — normalized current: -0.551.
For ANO1 del476-501; whole-cell voltage clamp; 10 µM, wild type, concentration-response at 20 mV, added: 4 µM Ca2+: normalized current read 0.0505.
The normalized current was 0.126 (Anoctamin-1 (ANO1, Homo sapiens, UniProt Q5XXA6, del476-501/R631A); inhibitor, whole-cell voltage clamp; 30 µM, R605A mutant).
The normalized current was 0.744 (ANO1 del476-501; whole-cell voltage clamp; 3 µM, wild type, concentration-response at 100 mV, added: 4 µM Ca2+).
It gave 0.525 for normalized current (Anoctamin-1 (ANO1, Homo sapiens, UniProt Q5XXA6, del476-501/E649A/R541A); inside-out patch clamp; 10 µM, membrane voltage 80 mV).
ANO1 del476-501/F628A; whole-cell voltage clamp; 100 µM, concentration-response at -60 mV, added: 4 µM Ca2+ — normalized current: -0.0917.
For ANO1 del476-501; whole-cell voltage clamp; 30 µM, wild type, concentration-response at 60 mV, added: 4 µM Ca2+: normalized current read 0.0368.
ANO1 del476-501; whole-cell voltage clamp; 3 µM, wild type, concentration-response at -80 mV, added: 4 µM Ca2+ — normalized current: -0.546.

For quick reference, copied from above (sample 3):
With `CC(=O)c1ccc(N2CCOCC2)cc1O` the remaining activity was 113%.
For `Nc1nccc(-c2c(-c3ccc(F)cc3)ncn2C2CCNCC2)n1`, the remaining activity was 94.9%.
With `N#CC(=C(N)Sc1ccc(N)cc1)c1ccccc1C(F)(F)F` the remaining activity was 95.3%.
